Results gathered from unrelated publications.
Numbers after ± are the reported error.
OPRD1: Delta-type opioid receptor (OPRD1, Homo sapiens, UniProt P41143)
UniProt P41143, sequence (whole entry, looked up): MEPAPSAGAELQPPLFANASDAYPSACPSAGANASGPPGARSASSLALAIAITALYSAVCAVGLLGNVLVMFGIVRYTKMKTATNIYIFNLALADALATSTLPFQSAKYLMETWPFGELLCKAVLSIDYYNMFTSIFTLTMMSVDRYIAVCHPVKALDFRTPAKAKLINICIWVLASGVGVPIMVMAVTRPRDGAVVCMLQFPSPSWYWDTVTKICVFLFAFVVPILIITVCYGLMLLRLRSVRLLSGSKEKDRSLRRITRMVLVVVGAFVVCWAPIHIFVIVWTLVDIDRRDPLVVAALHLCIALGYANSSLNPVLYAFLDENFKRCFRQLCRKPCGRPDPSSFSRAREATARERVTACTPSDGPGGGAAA
UniProt Q9Y5Y9, sequence (whole entry, looked up): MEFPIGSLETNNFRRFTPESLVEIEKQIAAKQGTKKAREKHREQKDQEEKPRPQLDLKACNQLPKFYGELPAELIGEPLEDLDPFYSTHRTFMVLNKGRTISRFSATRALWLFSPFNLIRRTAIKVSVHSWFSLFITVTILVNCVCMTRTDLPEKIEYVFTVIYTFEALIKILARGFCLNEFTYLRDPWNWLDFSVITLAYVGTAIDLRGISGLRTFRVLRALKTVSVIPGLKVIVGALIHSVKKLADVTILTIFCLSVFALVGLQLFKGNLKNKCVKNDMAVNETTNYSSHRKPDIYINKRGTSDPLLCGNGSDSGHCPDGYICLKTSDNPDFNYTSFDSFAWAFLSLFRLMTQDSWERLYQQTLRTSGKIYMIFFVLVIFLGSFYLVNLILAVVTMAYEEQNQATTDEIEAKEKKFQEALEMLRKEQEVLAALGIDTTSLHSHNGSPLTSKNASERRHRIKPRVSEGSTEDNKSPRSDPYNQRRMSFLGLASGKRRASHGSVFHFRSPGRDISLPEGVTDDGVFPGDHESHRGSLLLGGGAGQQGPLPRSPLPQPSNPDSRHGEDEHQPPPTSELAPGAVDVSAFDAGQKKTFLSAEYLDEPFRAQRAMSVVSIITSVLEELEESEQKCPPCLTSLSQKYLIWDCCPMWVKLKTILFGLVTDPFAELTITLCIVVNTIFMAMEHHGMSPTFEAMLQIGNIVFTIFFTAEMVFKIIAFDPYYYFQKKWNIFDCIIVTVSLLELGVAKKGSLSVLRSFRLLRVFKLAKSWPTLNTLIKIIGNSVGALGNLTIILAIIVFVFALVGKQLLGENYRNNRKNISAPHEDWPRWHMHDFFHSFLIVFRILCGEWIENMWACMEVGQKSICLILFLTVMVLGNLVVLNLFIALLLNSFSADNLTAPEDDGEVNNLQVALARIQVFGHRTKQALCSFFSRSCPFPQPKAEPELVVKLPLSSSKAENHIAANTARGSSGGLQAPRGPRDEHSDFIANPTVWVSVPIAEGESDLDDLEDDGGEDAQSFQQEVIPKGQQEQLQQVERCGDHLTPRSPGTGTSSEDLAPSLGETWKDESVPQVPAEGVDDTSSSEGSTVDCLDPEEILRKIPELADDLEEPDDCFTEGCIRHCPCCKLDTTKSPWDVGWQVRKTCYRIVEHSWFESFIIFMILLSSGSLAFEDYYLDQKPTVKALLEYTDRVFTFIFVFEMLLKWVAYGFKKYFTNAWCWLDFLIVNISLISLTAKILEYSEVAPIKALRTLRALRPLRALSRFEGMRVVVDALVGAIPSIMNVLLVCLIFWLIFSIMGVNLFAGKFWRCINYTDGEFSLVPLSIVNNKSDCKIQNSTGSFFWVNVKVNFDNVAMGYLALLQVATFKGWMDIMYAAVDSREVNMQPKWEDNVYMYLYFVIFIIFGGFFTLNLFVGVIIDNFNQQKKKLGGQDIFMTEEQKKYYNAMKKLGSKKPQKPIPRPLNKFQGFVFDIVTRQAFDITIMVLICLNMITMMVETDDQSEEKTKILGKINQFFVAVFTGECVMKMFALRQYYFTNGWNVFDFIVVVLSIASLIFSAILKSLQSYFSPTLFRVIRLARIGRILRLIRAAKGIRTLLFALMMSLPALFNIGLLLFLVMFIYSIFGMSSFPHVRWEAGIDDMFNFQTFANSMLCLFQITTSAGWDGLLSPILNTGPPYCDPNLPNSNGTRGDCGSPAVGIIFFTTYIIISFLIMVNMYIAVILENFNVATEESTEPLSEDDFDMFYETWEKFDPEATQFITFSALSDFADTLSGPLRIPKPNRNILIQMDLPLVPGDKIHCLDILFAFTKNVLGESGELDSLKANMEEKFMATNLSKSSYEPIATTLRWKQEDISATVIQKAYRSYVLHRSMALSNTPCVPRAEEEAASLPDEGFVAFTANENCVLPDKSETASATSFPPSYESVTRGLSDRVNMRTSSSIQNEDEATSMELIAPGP

For `CN[C@@H]1[C@H](O)[C@H](NC)[C@H]2O[C@]3(O)[C@H](O[C@@H]2[C@H]1O)O[C@H](C)C[C@H]3NC(=O)Cc1cc(Cl)ccn1`, the MIC was 25 mg/L (Bacillus anthracis; microbial growth; STERNE34F2).
Under “activation time constant”, `CC(C)C[C@@H]1NC(=O)[C@H](CCCNC(=N)N)NC(=O)[C@@H]2CCCN2C(=O)[C@@H]2CSSC[C@H](NC(=O)CNC(=O)[C@@H]3CCCN3C(=O)[C@H](CCCCN)NC(=O)[C@H](CC(=O)O)NC(=O)[C@@H](NC(=O)CN)C(C)C)C(=O)N[C@@H](CCCNC(=N)N)C(=O)N[C@@H](Cc3ccc(O)cc3)C(=O)N[C@@H](CC(C)C)C(=O)N[C@@H](Cc3ccccc3)C(=O)NCC(=O)NCC(=O)N[C@H]3CSSC[C@H](NC(=O)CNC1=O)C(=O)N[C@@H](CCCCN)C(=O)NCC(=O)N[C@@H](CCCCN)C(=O)NCC(=O)N[C@@H](Cc1c[nH]cn1)C(=O)N[C@@H](CC(=O)O)C(=O)N[C@@H](Cc1ccc(O)cc1)C(=O)N[C@H](C(=O)N[C@@H](C)C(=O)N[C@@H](Cc1c[nH]c4ccccc14)C(=O)N[C@@H](CC(=O)O)C(=O)NCC(=O)N[C@H](C(=O)N[C@@H](Cc1ccccc1)C(=O)N[C@@H](CO)C(=O)N[C@@H](CC(=O)O)C(=O)O)[C@@H](C)O)CSSC[C@H](NC(=O)[C@H](CC(=O)O)NC(=O)[C@H](CC(=O)O)NC(=O)[C@H](CC(=O)O)NC(=O)[C@H](CO)NC(=O)[C@H](CCCCN)NC3=O)C(=O)N2` is recorded as 1.6 ± 0.1 ms (SCN10A (Homo sapiens, UniProt Q9Y5Y9); 1 µM, test potential -10 mV).
With `Cc1cccc(C)c1SCC1OC(OC2C(N)CC(N)C(OC3OC(CN)C(O)CC3N)C2O)C(O)C(N)C1O` (stereo not shown) the MIC was 37.5 mg/L (Bacillus anthracis; Sterne 34F2).
`ONCc1ccc(F)cc1` gave an MIC50 of under 15 mg/L (Bacillus anthracis; Sterne 7700 pXO1-/pXO2-; 8 h).
The MIC of `CC1(C)S[C@@H]2[C@H](NC(=O)[C@H](NC(=O)C3=C(O)C(c4ccccc4F)NC3=O)c3ccccc3)C(=O)N2[C@H]1C(=O)O` (stereo partly shown) is reported as 3.13 mg/L (Bacillus anthracis; Sterne).
The MIC of `CN[C@@H]1[C@H](O)[C@H](NC)[C@H]2O[C@]3(O)[C@H](O[C@@H]2[C@H]1O)O[C@H](C)C[C@H]3NC(=O)CNC(C)(C)C` is reported as 50 mg/L (Bacillus anthracis; microbial growth; STERNE34F2).
For `CC(C)C[C@H](NC(=O)[C@H](CO[C@@H]1O[C@H](CO)[C@@H](O[C@@H]2O[C@H](CO)[C@H](O)[C@H](O)[C@H]2O)[C@H](O)[C@H]1O)NC(=O)[C@H](CCCCN)NC(=O)[C@H](CC(C)C)NC(=O)C(C)(C)NC(=O)[C@H](CCCCN)NC(=O)[C@H](CCC(=O)O)NC(=O)[C@H](C)NC(=O)[C@H](CC(C)C)NC(=O)[C@H](CC(N)=O)NC(=O)[C@@H]1CCCN1C(=O)[C@H](CC(C)C)NC(=O)[C@H](Cc1ccccc1)NC(=O)CNC(=O)[C@H](NC(=O)[C@@H](N)Cc1ccc(O)cc1)[C@H](C)O)C(N)=O`, the Ki was 0.012 µM (OPRD1; ligand displacement, radioligand; pH 7.5, cell membranes).
The MIC of `CC(/C=C/C(O)=C1/C(=O)CNC1=O)=C\[C@@H](C)[C@H]1O[C@@]2(C)O[C@H](C(=O)[C@@H]3O[C@@]32CO)[C@@H]1C` is reported as 6.25 µM (Bacillus anthracis; 34F2).
`CN[C@@H]1[C@H](O)[C@H](NC)[C@H]2O[C@]3(O)[C@H](O[C@@H]2[C@H]1O)O[C@H](C)C[C@H]3NC(=O)Cc1cscn1` has an MIC of 1.6 mg/L (Bacillus anthracis; microbial growth; STERNE34F2).
The half-life of `CC[C@H](C)[C@@H]([C@@H](CC(=O)N1CCC[C@H]1[C@H](OC)[C@@H](C)C(=O)N[C@H](C)[C@@H](O)c1ccccc1)OC)N(C)C(=O)[C@@H](NC(=O)[C@H](C(C)C)N(C)C(=O)OCc1ccc(NC(=O)[C@H](CCCNC(N)=O)NC(=O)[C@@H](NC(=O)Cn2cc(CCC(=O)NCCC(=O)N(C)CC(=O)N(C)CC(=O)N(C)CC(=O)N(C)CC(=O)N(C)CC(=O)N(C)CC(=O)N(C)CC(=O)N(C)CC(=O)N(C)CC(=O)N(C)CC(=O)N[C@@H](C)C(=O)NC3CN(C)Cc4cc5cc(c4)CN(C)CC(C(N)=O)NC(=O)[C@H](C(C)(C)C)NC(=O)[C@H](CC(=O)O)NC(=O)[C@H](Cc4ccc(O)cc4)NC(=O)[C@H](Cc4ccccc4)NC(=O)[C@H](CC(=O)O)NC(=O)[C@H](CCC(=O)O)NC(=O)[C@H](CSC5)NC(=O)[C@@H](C)NC(=O)[C@H](Cc4cccc5ccccc45)NC(=O)[C@H](CCC(=O)O)NC(=O)[C@H](CC(N)=O)NC(=O)[C@@H](C)NC3=O)nn2)C(C)C)cc1)C(C)C` (stereo partly shown) is reported as 0.7 h (CD-1 mouse, plasma; intravenous, 3 mg/kg).
`CC(/C=C/C(O)=C1/C(=O)CNC1=O)=C\[C@@H](C)[C@H]1O[C@@]2(C)O[C@H](C[C@@H]3O[C@@]32C)[C@@H]1C` gave an MIC of 25 µM (Bacillus anthracis; 34F2).
For `CC(C)C[C@H](NC(=O)[C@H](CO)NC(=O)[C@H](CCCCN)NC(=O)[C@H](CC(C)C)NC(=O)[C@H](C)NC(=O)[C@H](CCCCN)NC(=O)[C@H](CCC(=O)O)NC(=O)[C@H](C)NC(=O)[C@H](CC(C)C)NC(=O)[C@H](CC(N)=O)NC(=O)[C@@H]1CCCN1C(=O)[C@H](CC(C)C)NC(=O)[C@H](Cc1ccccc1)NC(=O)CNC(=O)[C@H](NC(=O)[C@@H](N)Cc1ccc(O)cc1)[C@H](C)O)C(N)=O`, the Ki was 0.016 µM (OPRD1; ligand displacement, radioligand; pH 7.5, cell membranes).
`CCCCCCSCC1OC(OC2C(N)CC(N)C(OC3OC(CN)C(O)CC3N)C2O)C(O)C(N)C1O` (stereo not shown) has an MIC of 150 mg/L (Bacillus anthracis; Sterne 34F2).
`CC(C=CC(O)=C1C(=O)CNC1=O)=CC(C)C1OC2(C)OC(C1C)C(O)C1OC12C` (stereo not shown) has an MIC of 50 µM (Bacillus anthracis; 34F2).
The half-life of `CCCCCCCCCCCCCCCC(=O)N[C@@H](CCC(=O)NCCOCCOCCC(=O)NCCOCCOCCC(=O)NCCCC[C@H](NC(=O)[C@H](CC(=O)O)NC(=O)[C@H](CC(C)C)NC(=O)[C@H](Cc1ccc(O)cc1)NC(=O)[C@H](CCCCN)NC(=O)[C@H](CO)NC(=O)[C@H](Cc1ccc(O)cc1)NC(=O)[C@H](CC(=O)O)NC(=O)[C@H](CO)NC(=O)[C@@H](NC(=O)[C@H](Cc1ccccc1)NC(=O)[C@@H](NC(=O)CNC(=O)[C@H](CCC(N)=O)NC(=O)[C@@H](CO)NC(=O)[C@@H](N)Cc1c[nH]cn1)[C@@H](C)O)[C@@H](C)O)C(=O)N[C@@H](CCCNC(=N)N)C(=O)N[C@@H](CCCNC(=N)N)C(=O)N[C@@H](C)C(=O)N[C@@H](CCC(N)=O)C(=O)N[C@@H](CC(=O)O)C(=O)N[C@@H](Cc1ccccc1)C(=O)N[C@H](C(=O)N[C@@H](CCC(N)=O)C(=O)N[C@@H](Cc1c[nH]c2ccccc12)C(=O)N[C@@H](CC(C)C)C(=O)N[C@@H](CC(C)C)C(=O)N[C@@H](CC(N)=O)C(=O)N[C@H](C(=O)NCC(=O)NCC(=O)N1CCC[C@H]1C(=O)N[C@@H](CO)C(=O)N[C@@H](CO)C(=O)NCC(=O)N[C@@H](C)C(=O)N1CCC[C@H]1C(=O)N1CCC[C@H]1C(=O)N1CCC[C@H]1C(=O)N[C@@H](CO)C(N)=O)[C@@H](C)O)C(C)C)C(=O)O` is reported as 2.47 h (rhesus monkey, plasma; subcutaneous, 60 µg/kg, single dose).
The MIC of `CCCCCCCCCCCC[S+]([O-])CC1OC(OC2C(N)CC(N)C(OC3OC(CN)C(O)CC3N)C2O)C(O)C(N)C1O` (mixture of isomers) is reported as 2.3 mg/L (Bacillus anthracis; Sterne 34F2).

Repeated from above:
Under “activation time constant”, `CC(C)C[C@@H]1NC(=O)[C@H](CCCNC(=N)N)NC(=O)[C@@H]2CCCN2C(=O)[C@@H]2CSSC[C@H](NC(=O)CNC(=O)[C@@H]3CCCN3C(=O)[C@H](CCCCN)NC(=O)[C@H](CC(=O)O)NC(=O)[C@@H](NC(=O)CN)C(C)C)C(=O)N[C@@H](CCCNC(=N)N)C(=O)N[C@@H](Cc3ccc(O)cc3)C(=O)N[C@@H](CC(C)C)C(=O)N[C@@H](Cc3ccccc3)C(=O)NCC(=O)NCC(=O)N[C@H]3CSSC[C@H](NC(=O)CNC1=O)C(=O)N[C@@H](CCCCN)C(=O)NCC(=O)N[C@@H](CCCCN)C(=O)NCC(=O)N[C@@H](Cc1c[nH]cn1)C(=O)N[C@@H](CC(=O)O)C(=O)N[C@@H](Cc1ccc(O)cc1)C(=O)N[C@H](C(=O)N[C@@H](C)C(=O)N[C@@H](Cc1c[nH]c4ccccc14)C(=O)N[C@@H](CC(=O)O)C(=O)NCC(=O)N[C@H](C(=O)N[C@@H](Cc1ccccc1)C(=O)N[C@@H](CO)C(=O)N[C@@H](CC(=O)O)C(=O)O)[C@@H](C)O)CSSC[C@H](NC(=O)[C@H](CC(=O)O)NC(=O)[C@H](CC(=O)O)NC(=O)[C@H](CC(=O)O)NC(=O)[C@H](CO)NC(=O)[C@H](CCCCN)NC3=O)C(=O)N2` is recorded as 1.6 ± 0.1 ms (SCN10A (Homo sapiens, UniProt Q9Y5Y9); 1 µM, test potential -10 mV).
